# Experimental data collected from several papers.
# Numbered parts are unrelated; each lists some results of a single study. Positions count from the first letter of the parent shown.

# Series 1
# Target: Sal-like protein 4, full length isoform B (SALL4, Homo sapiens, UniProt Q9UJQ4-2, residues 1-616)
# Technique: universal PBM
# Form: double-stranded DNA, one strand shown
# Sample: in vitro
# Concentration: not given
# Setting: 8-mer, flanks averaged, mean of replicates
# Reading: higher = stronger binding
Sequence,E-score
CCAATTGC,-0.0223
GTGATCCA,-0.112
ACGCAGTA,-0.141
AATTTCGG,0.0843
GGAATAAC,-0.00315
CTAGGTTC,-0.228
CTACGCGA,-0.153
CTGGCGAA,-0.199
ATTCTAGG,0.146
AGATAGGG,-0.0386
CCTGTACG,-0.0821
ACGAGTCA,0.0733
GAGACTGA,-0.0844
AGATCCAA,-0.0564
AAATCGAG,0.0752
CGTGCCGC,-0.266
CCGATGCC,-0.181
GACGCCAC,-0.253
ACTGTTGC,0.0254
CAAGGCAA,0.0118
ACATGTGC,9e-05
AACACGAA,0.149
CTATCCGC,-0.0773
ATCTACAC,0.0599
ACCAGTAG,-0.0232

# Series 2
# Target: Interferon regulatory factor 5, full length, phosphomimetic (IRF5, Homo sapiens, UniProt Q13568-2, residues 1-514, S451D/S453D/S456D/S462D)
# Technique: protein-binding microarray
# Form: double-stranded DNA, one strand shown
# Sample: in vitro
# Concentration: 940 nM top
# Setting: 60-bp whole probe
# Together with: salmon DNA 0.4 mg/ml
# Baseline: random background probes
# Reading: higher = stronger binding
# All sequences stand within: GCCTAGCAC … GTCTTGATTCGCTTGACGCTGCTG
Sequence,fitted relative affinity
GACGTTCTCCTTTTCCTGACGTGCTAG,1.43 z-score
TATCAGTAGGTAAGGAAAAGGTGCTAG,0.331 z-score
TTAGGTATCGAGTTTCGGTTAGTGCTA,8.46 z-score
TTAGTTTTCCTACTGCTTTAGTGCTAG,1.47 z-score
TCATACTTGTGTCTAGAACTGTGCTAG,-0.0596 z-score
TTAGGTATCTACACTGGGTTAGTGCTA,0.608 z-score
TTGAATCTCCCATTATATTTGTGCTAG,0.798 z-score
TCATGTTTCCTTCCTCTACTGTGCTAG,1.52 z-score
TCAATCATCCGTTTCTTACTGTGCTAG,0.976 z-score
TTAGGCATCGACACTGGGTTAGTGCTA,-0.408 z-score
TCATGTTTCTTCTGCTGACTGTGCTAG,1.12 z-score
GACGGTTTCTGTCTCGGGACGTGCTAG,5.84 z-score
ACTCCTATCCAAGTTCCCCTGGTGCTA,0.826 z-score
TTAGATATCTGGTTTCGATTAGTGCTA,7.64 z-score
TCACATTGCCTATTTTTCACTGTGCTA,1.08 z-score
TTCCTTTACTTTCTTTTTTTGTGCTAG,3.28 z-score
TTAGATATCAGTCTCGATTAGTGCTAG,3.37 z-score

# Series 3
# Target: Phosphate system positive regulatory protein PHO4, full length, GST-tagged (PHO4, Saccharomyces cerevisiae, UniProt P07270, residues 1-312)
# Technique: competition protein-binding microarray
# Form: double-stranded DNA, one strand shown
# Sample: in vitro
# Concentration: 2 µM
# Setting: whole 60-bp probe, lowest competitor level
# Together with: Cbf1 competitor, 0.05 µM
# Reading: higher = stronger binding
# All sequences stand within: … GTCTTGATTCGCTTGACGCTGCTG
# Residues (chain): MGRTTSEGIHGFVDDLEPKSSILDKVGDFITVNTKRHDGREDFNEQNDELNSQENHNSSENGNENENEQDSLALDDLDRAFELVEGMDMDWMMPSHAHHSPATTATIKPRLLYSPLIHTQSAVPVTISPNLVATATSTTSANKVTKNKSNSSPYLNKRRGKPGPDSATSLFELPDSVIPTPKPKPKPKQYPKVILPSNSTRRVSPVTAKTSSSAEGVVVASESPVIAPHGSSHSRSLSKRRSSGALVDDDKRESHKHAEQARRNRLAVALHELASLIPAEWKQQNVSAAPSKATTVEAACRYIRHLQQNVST
Sequence,fluorescence intensity
ACAAAATGGGTATTTCTCGTGATGGTCGTCCCAAAA,4050 a.u.
ACCGAGGACCAGGCCCATGTGGCAGAGTAGCTGCTG,11300 a.u.
CGCAATTTCCTTTATCGAACATATTGGGTAAACAAC,3680 a.u.
TCCGGACCCACCGATTGCGTGATGGCCTGTACAAGG,4580 a.u.
CAGCCTTTAATTTTTCACGTGTGAAATTCGATAATT,12300 a.u.
TGCGCAACAACTTTTCACGTGAGTTTATGTCTAGAA,11000 a.u.
ATTGTAGAATTTACCCACGTCTGTCCATCAAGAAGA,6990 a.u.
AAGACCGTATGGGAACACGTGGAGGATTAGGCTCGC,18100 a.u.
CAACACAATTCGAGTCACGTGGAACGGCCTTCAAAT,14800 a.u.
CTTCTGTAAATTTGTAATGTGGGTGGACGCGCCCCG,5310 a.u.
CGTCCTAGCGATTGAAACGTGGGTGCCATGAGGAAG,13700 a.u.
CGCCTACAACTTTGGCGCGTGAGCCAAGTGTCTTCT,6860 a.u.
CTTTCCCGATCTTGGATTGTGGGTGTAGCACATTTG,4780 a.u.
TGCGCAACAACTTGGGGTGTGGGTGTATGTCTAGAA,6910 a.u.
CGGGGTTAAGTTTGTCACGGGACTTGCTTGCAGCAG,5590 a.u.
AAGAGCTTCTTGCGCTTTTTATCCCCATGGACTAGG,3440 a.u.
CTAACGAAGGTTTGGTCGGTGGGTGACAAGCCAAGT,3810 a.u.
AACCTAGAGCTTCGTCACGGGGGCCTTGTCCGACTT,7130 a.u.
AAGAAATATTGCCAACACGTGAGATTGAAAAAGCAA,14100 a.u.
CCCACTTGTCTTCGATGCGTGCTTTTGCCAATCAAC,8980 a.u.
TTACCGTCACCCGTACATGTGTGAGCAGAGGTACAA,7700 a.u.
TGCGCAACAACTTGTCACGCGACTTTATGTCTAGAA,7160 a.u.
TTTGATTGGTAAACACACGTGGTTACATGAATTCTT,17900 a.u.

# Series 4
# Target: ABI1, truncated, D143A, DHFR fusion (Arabidopsis thaliana)
# Technique: DHFR PCA, deep sequencing
# Sample: yeast
# Setting: methotrexate growth selection, single substitutions
# Together with: (+)-ABA 17 µM
# Baseline: wild-type fitted maximum
# Reading: higher = stronger binding
# Starting sequence: PYL1, truncated, DHFR fusion (Arabidopsis thaliana); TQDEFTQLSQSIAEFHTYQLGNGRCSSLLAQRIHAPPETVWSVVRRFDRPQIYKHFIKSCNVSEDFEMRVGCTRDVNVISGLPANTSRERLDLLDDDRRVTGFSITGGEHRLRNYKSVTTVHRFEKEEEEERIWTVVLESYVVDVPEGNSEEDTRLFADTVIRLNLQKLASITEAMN
Change,relative binding score [%]
Y115I,11.9
L138C,37.7
P146I,15.1
E152P,44.7
D96I,-10.2
R113G,58.5
E14G,28.1
F66S,70
L82C,37.4
R113T,98.4
V145P,1.53
T86G,68.5
Q7Y,81.8
I172G,5.16
S171A,91.4
W41G,-7.29
E152V,70.4
I105N,0.474
T173V,81.7
N114A,34
A30M,89.5
E152K,69.2
I172K,41.2

# Series 5
# Target: CCNA1, cyclin fold, Cln2 fusion (human)
# Technique: yeast growth competition, sequencing
# Sample: yeast
# Setting: weak parent motif
# Baseline: not given
# Reading: higher = stronger binding
# Starting sequence: PPP1R3F docking peptide (human); VAPRRVLFADEAL; partner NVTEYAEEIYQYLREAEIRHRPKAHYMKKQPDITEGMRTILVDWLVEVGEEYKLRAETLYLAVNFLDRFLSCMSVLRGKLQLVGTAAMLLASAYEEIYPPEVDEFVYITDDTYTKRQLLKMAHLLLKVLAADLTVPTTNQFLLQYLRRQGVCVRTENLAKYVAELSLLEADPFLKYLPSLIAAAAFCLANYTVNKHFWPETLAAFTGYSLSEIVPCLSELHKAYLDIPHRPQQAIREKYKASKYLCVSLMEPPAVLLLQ
Change,normalised enrichment score
R5K,0.0632
F8A,0.218
R4A,0.35
D10A,0.588
L7A,0.621
E11A,0.311

# Series 6
# Target: Histone acetyltransferase KAT6A, winged helix 1, GST fusion (KAT6A, Homo sapiens, UniProt Q92794, residues 1-85)
# Technique: protein binding microarray
# Form: double-stranded DNA, one strand shown
# Sample: in vitro
# Concentration: not given
# Setting: 8-mer, flanks averaged, mean of 2 arrays, mostly near background
# Baseline: not given
# Reading: higher = stronger binding
# Residues (chain): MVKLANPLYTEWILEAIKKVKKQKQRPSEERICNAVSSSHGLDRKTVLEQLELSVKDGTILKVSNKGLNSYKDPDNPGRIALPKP
Sequence,E-score
CTTTAGCA,-0.172
CCGTCTAG,0.213
ACCGCAGT,0.0882
AGGAACTA,-0.165
ATAGTTAA,0.0119
ACTTTTCT,-0.265
CCCCATCG,0.0522
CGTTGCTA,-0.114
CGTATTGA,-0.0627
AAGTGTCG,-0.0695
GCTAAGCA,0.154
AAAAGGGC,-0.117
ACCTCAAG,-0.279
ATAGGGCA,-0.265
CGGTAGAA,0.0799
CAGCTCTC,-0.274
GGGACGTA,0.157
GCGTGACA,0.0871
ATGGTTGG,-0.045
AACAGGCG,0.0809
AATATATC,-0.136
CTGTGCAA,-0.172

# Excerpt of the above (series 1):
Sequence,E-score
ACGCAGTA,-0.141
AATTTCGG,0.0843
GGAATAAC,-0.00315
CTAGGTTC,-0.228
CTACGCGA,-0.153
CTGGCGAA,-0.199
ATTCTAGG,0.146
AGATAGGG,-0.0386
CCTGTACG,-0.0821
ACGAGTCA,0.0733
GAGACTGA,-0.0844
AGATCCAA,-0.0564
AAATCGAG,0.0752
CGTGCCGC,-0.266
CCGATGCC,-0.181
